Measured values pooled from the literature.
A part holds a random share of what one study measured. Positions count from the first letter of the parent shown.

Set 1
Target: CCNE1, cyclin fold, Cln2 fusion (human)
Method: yeast growth competition, sequencing
Sample: yeast
Notes: weak parent motif
Reference: not given
Direction: higher = stronger binding
Starting sequence: RB1 docking peptide (human); PKPLKKLRFDIEG
| Variant | normalised enrichment score |
| --- | --- |
| GKPLKKLRFDIEG [P1G] | -0.156 |
| PNPLKKLRFDIEG [K2N] | 0.0949 |
| PKPLKKLRFDIAG [E12A] | 0.0932 |
| PKPLKKLRFDLEG [I11L] | 1.39 |
| PHPLKKLRFDIEG [K2H] | -0.322 |
| PKPLKKLRMDIEG [F9M] | 0.658 |
| PKPLKKGRFDIEG [L7G] | 0.66 |
| PKPLKKLRFFIEG [D10F] | 0.917 |
| PKPLSKLRFDIEG [K5S] | 1.18 |
| PKPLKKLRFGIEG [D10G] | 1.78 |
| PKPFKKLRFDIEG [L4F] | 0.352 |
| PKPLAKARFDIEG [K5A L7A] | -0.0139 |
| PKPQKKLRFDIEG [L4Q] | -0.0376 |
| PKPLKKLRFAIEG [D10A] | 0.772 |
| PKPLKKLRFKIEG [D10K] | 0.0699 |

Set 2
Target: RNA binding protein fox-1 homolog 2, RRM domain, GST-SBP tag (RBFOX2, Homo sapiens, UniProt O43251-10, residues 100-194)
Method: RNA Bind-n-Seq
Form: RNA
Sample: in vitro
Concentration: 365 nM
Notes: natural RNA segment, single round, ends assumed
Reference: no-protein control
Direction: higher = stronger binding
Construct (chain): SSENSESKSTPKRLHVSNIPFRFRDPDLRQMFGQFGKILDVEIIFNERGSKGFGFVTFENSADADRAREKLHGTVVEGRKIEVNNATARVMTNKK
| Oligonucleotide | RBNS enrichment (R) |
| --- | --- |
| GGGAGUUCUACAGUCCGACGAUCAUUUCCCUUACUCUGAAGUUCCGGCAUUCACAUCAUUCAUGUUUUCUUUUGUCUUUUAGCUAAAGGAAAAGCAUUGGCGAUUUGUCUGAUUCUGGUUUUGAGUUACUCUUUGGAAUUCUCGGGUGCCAA | 0.218 |
| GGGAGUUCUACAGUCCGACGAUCCUGUAGUUUUGAAGUCAUCCGUUUUUUGAUGACAAAGUACCUGUGGAAAACCAGGGAUAUUUUUUUUUCCUCAACUUCUUCUCUUUACUCCCUACCCCUCUCCUCCCUAAUGGAAUUCUCGGGUGCCAA | 1.63 |
| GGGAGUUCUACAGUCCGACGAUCAAGACCUUUGUUUUAAGACUUCCACACACCAAGGCUACAAUGACUGUUAACCUGGAGGAAGUCUCUGGUAUGGAGUUCUGAGAGCUUAAGAGCUAAACAUGAGUUUAGACUGGAAUUCUCGGGUGCCAA | 0.354 |
| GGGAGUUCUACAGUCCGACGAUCGGACAGACGGCCUCCCUCCUCUCCAUCUGACCGGCACCUGCUGCUUCGGGGCUUAGGCCACCGCUCCCUGUCCCCAGAGGAGAUAGCCCCAGAUGGACUGGAAUGUUGUGUGGAAUUCUCGGGUGCCAA | 0.504 |
| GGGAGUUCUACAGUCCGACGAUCAGUCAACUGCUUUUUUAUUUAAAAUUUAAAGAAAAAAAAAAGAAAAAAAAAGCUGUAACCUUAUCAUUUCUGAGUAGACCAUUAAGAGAAAUGCACACCUGUCAGCCCAGUGGAAUUCUCGGGUGCCAA | 0.867 |
| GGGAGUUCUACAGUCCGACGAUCGUUAAUUGGUAUUCAUUCACAAUGCAGUUGAAGGGGGAAGGCUCCACUGCAUUCUUUGGCUAAGGCCUGAAUGCUUGCUCAUCUGUAAGAUCUAUACUCGAGGUUUUGUUUGGAAUUCUCGGGUGCCAA | 0.663 |
| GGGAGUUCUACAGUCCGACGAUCUGCUCUCUGGCUAAAGUCACGGUCAAACCUAAACACCGAGCCUCAUUAACCCAAGUGAACCAACCAAAGUCACCAGUUCAGAAGUGCUAAGCUAAUAGGAGUCUGACCCGUGGAAUUCUCGGGUGCCAA | 0.25 |
| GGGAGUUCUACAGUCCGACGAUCUGAGAAAAAUCAUUGUUUCUUGUGAAACUGCGUGUCUUCCCUAAAAAUAAUAAAAUUCAGAAAUGUUCGUUUGUUCUUGCUUUAGAGGGAAUGCCUACUCCCAGAAAGUGUGGAAUUCUCGGGUGCCAA | 0.648 |

Set 3
Target: Interferon regulatory factor 5, full length, phosphomimetic (IRF5, Homo sapiens, UniProt Q13568-2, residues 1-514, S451D/S453D/S456D/S462D)
Method: protein-binding microarray
Form: double-stranded DNA, one strand shown
Sample: in vitro
Concentration: 940 nM top
Notes: 60-bp whole probe
With: salmon DNA 0.4 mg/ml
Reference: random background probes
Direction: higher = stronger binding
All sequences stand within: GCCTAGCAC … GTCTTGATTCGCTTGACGCTGCTG
| Oligonucleotide | fitted relative affinity [z-score] |
| --- | --- |
| TTAGGTATCGGGTATCGGGTAGTGCTA | 6.42 |
| GACGGGTCCCTTTTCCTGACGTGCTAG | 0.228 |
| TCAATTTTTTTTTTCTAACTGTGCTAG | 1.8 |
| GACTGTTCCCTTTTCCTGACGTGCTAG | 1.33 |
| CCTCTTCTGGATCTCAGACTGTGCTAG | 0.249 |
| TCATGTTGCTGTTTGAGACTGTGCTAG | 0.104 |
| ATAGGTCTCCTACTGCTTTAGTGCTAG | -0.0223 |
| TTAGGTTTCGGGGCTGGGTTAGTGCTA | 8.45 |
| GTCCCCTGTCGGGAGGTCAGGTGCTAG | -0.47 |
| TTAGATTTCAGTCTCGATTGGTGCTAG | 4.05 |
| GACGGACTGGGACTGTGGACGTGCTAG | -0.592 |
| TCACATCTCCAAAGTCAGACTGTGCTA | 0.447 |
| TCAATTTTAACCCTTATACTGTGCTAG | 0.849 |
| GACGGTTTCGGTATCCGGACGTGCTAG | 14.9 |
| TTAGATCTAAGTATCGATTAGTGCTAG | 3.69 |

Single results of other studies
| Molecule | target | assay | test system | setting | how to read | endpoint | result |
| --- | --- | --- | --- | --- | --- | --- | --- |
| PhoQ, residues 284 288 289 292 302 303 SSTLSG | PhoP, residues 12 14 15 18 19 AQALL (Escherichia coli, UniProt P23836) | Sort-seq, measured: YFP reporter | E. coli | PhoQ-PhoP variant library, with: 10 µM Mg2+ | reference: high Mg2+ state, higher = stronger signaling | fold induction | 8 |

A few entries again (set 1):
| Variant | normalised enrichment score |
| --- | --- |
| PNPLKKLRFDIEG [K2N] | 0.0949 |
| PKPLKKLRFDIAG [E12A] | 0.0932 |
| PKPLKKLRFDLEG [I11L] | 1.39 |
| PHPLKKLRFDIEG [K2H] | -0.322 |
| PKPLKKLRMDIEG [F9M] | 0.658 |
| PKPLKKGRFDIEG [L7G] | 0.66 |
